Results gathered from unrelated publications.
A part holds a random share of what one study measured.

Set 1
Target: Ras GTPase-activating protein-binding protein 1, full length (G3BP1, Homo sapiens, UniProt Q13283)
Sequence of UniProt Q13283 (whole entry, looked up): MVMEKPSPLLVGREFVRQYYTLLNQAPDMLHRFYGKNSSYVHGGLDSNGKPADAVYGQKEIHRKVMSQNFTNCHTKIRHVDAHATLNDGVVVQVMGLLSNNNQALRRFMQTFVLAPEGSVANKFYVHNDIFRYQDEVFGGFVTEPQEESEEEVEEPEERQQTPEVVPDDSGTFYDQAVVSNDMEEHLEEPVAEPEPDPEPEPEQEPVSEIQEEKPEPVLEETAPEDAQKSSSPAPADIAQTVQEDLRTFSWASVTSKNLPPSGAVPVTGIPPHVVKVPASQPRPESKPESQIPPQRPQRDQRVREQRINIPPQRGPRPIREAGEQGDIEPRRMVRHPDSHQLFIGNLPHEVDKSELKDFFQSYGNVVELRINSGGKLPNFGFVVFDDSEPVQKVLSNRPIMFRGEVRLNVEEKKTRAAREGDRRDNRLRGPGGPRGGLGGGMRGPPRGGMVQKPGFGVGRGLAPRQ
Technique: RNA Bind-n-Seq
Form: RNA
Sample: in vitro
Concentration: 200 nM
Notes: whole 134-nt RNA, ends assumed
Added: 150 mM LiCl
Baseline: input library
Reading: higher = stronger binding
All molecules: 7-deaza-guanosine replaces G
`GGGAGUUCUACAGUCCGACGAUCCUGUGCUACACAUCGUAUGUACCGAAUCGGGGUUUUUUUGGGGUUUUUUUGGGGAAAGGGGAAAGUAUUAUGUUACGCCGUUCGGAUCUGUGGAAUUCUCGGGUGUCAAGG` gave a log2 enrichment of 1.19.
The log2 enrichment of `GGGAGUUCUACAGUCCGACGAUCUGAGAAACUUGCUCAAAUAUUGGCAGCUAGACAGUUAGAAAUUAAACAGAUUCCAUCUGAUGGCCACUGUAUGUAUAAAGCCAUUGAAGAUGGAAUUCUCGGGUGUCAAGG` is reported as -1.57.
With `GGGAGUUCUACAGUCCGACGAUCCUCAAGUCCUGUGCUACACAUCGUAUGUACCGAAUCGGGUUUGGGAGGGUGGGAAAGUAUUAUGUUACGCCGUUCGGAUCUGCACUUCCAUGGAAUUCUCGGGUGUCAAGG` the log2 enrichment was -0.175.
For `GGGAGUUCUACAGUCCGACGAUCCAAGUCCUGUGCUACACAUCGUAUGUACCGAAUCGGGAAAGGGAAAGGGAAAGGGAAAGUAUUAUGUUACGCCGUUCGGAUCUGCACUUCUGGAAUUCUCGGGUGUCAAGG`, the log2 enrichment was -0.401.
`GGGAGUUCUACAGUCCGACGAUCCAAGUCCUGUGCUACACAUCGUAUGUACCGAAUCGGGUGGGUGGGUUUUUUUGGGAAAGUAUUAUGUUACGCCGUUCGGAUCUGCACUUCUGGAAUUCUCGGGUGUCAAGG` gave a log2 enrichment of -0.2.
`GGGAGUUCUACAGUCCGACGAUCUCCUGUGCUACACAUCGUAUGUACCGAAUCGGGCCCCCCGGGGCCCCCCGGCCCCCCGGAAAGUAUUAUGUUACGCCGUUCGGAUCUGCAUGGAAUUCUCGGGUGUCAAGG` has a log2 enrichment of -0.853.
For `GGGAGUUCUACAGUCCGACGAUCAAGUCCUGUGCUACACAUCGUAUGUACCGAAUCGGGCCCCGGCCCCGGGCCCCGGGGAAAGUAUUAUGUUACGCCGUUCGGAUCUGCACUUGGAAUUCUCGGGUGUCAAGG`, the log2 enrichment was -1.25.

Set 2
Target: Interferon regulatory factor 5, full length, phosphomimetic (IRF5, Homo sapiens, UniProt Q13568-2, residues 1-514, K96S/S451D/S453D/S456D/S462D)
Technique: protein-binding microarray
Form: double-stranded DNA, one strand shown
Sample: in vitro
Concentration: 250 nM
Notes: 60-bp whole probe
Added: salmon DNA 0.4 mg/ml
Baseline: random background probes
Reading: higher = stronger binding
Constant ends, left off below: GCCTAGCAC … GTCTTGATTCGCTTGACGCTGCTG
With `TTCTATCTCTGTTTTTGCTTGTGCTAG` the log fluorescence was 1.57 z-score.
The log fluorescence of `GTCGGTCTCCTTTTCCTGACGTGCTAG` is reported as 0.528 z-score.
`TCACCACCCGCTCTGGCACTGTGCTAG` gave a log fluorescence of -0.579 z-score.
The log fluorescence of `GACGGTTTCGGTCTCGGGGCGTGCTAG` is reported as 9.74 z-score.
The log fluorescence of `GACGGTCACCTTATCCTGACGTGCTAG` is reported as -0.122 z-score.
The log fluorescence of `TTAGATTTCGGGTATCGATTGGTGCTA` is reported as 7.21 z-score.
With `TCAAGTTTTCCTATGTCACTGTGCTAG` the log fluorescence was 1.01 z-score.
With `ACAACTAGGGAATTTAGAAAAGTGCTA` the log fluorescence was 0.141 z-score.

Set 3
Target: Replicase polyprotein 1ab, nsp13 helicase (rep, Severe acute respiratory syndrome coronavirus 2, UniProt P0DTD1)
Action: inhibitor
Concentration: 20 µM
With O=C(NC(=O)c1c(F)cccc1Cl)NC1c2ccccc2-c2ccccc21 the inhibition was 2.01%.
For CCCCn1c(=O)c2[nH]c(C34CC5CC(CC3C5)C4)nc2n(CCCO)c1=O, the inhibition was -0.82%.
O=C(c1ccc(F)cc1)C1CCN(CCn2c(=O)[nH]c3ccccc3c2=O)CC1 has an inhibition of -3.6%.
For CC(C)(C)c1cc(C=C(C#N)C#N)cc(Br)c1O, the inhibition was 5.75%.
The inhibition of C[N@+]1(CC2CC2)CC[C@]23c4c5ccc(O)c4O[C@H]2C(=O)CC[C@@]3(O)[C@H]1C5 is reported as 3.09%.
For CCCN1CCC[C@H](c2cccc(O)c2)C1, the inhibition was -3.31%.
With CN(C)CCC=C1c2ccccc2C=Cc2ccccc21 the inhibition was 0.79%.
For CC[N+](CC)(CC(=O)Nc1c(C)cccc1C)Cc1ccccc1, the inhibition was -5.71%.
The inhibition of C[C@H](Nc1cc(-c2cnn(C)c2)cc(Nc2cnccn2)n1)c1ccc(F)cc1 is reported as 5.62%.
NS(=O)(=O)OC[C@@H]1C[C@@H](n2ccc3c(N[C@H]4CCc5ccccc54)ncnc32)C[C@@H]1O gave an inhibition of 6.22%.
With COc1ccc([C@@H]2CC(=O)c3c(O)cc(O[C@@H]4O[C@H](CO[C@@H]5O[C@@H](C)[C@H](O)[C@@H](O)[C@H]5O)[C@@H](O)[C@H](O)[C@H]4O)cc3O2)cc1O the inhibition was 7.93%.
COc1ccc(Cl)cc1NC(=O)Nc1cc(C)nc2ccccc12 gave an inhibition of 4.96%.
For CNCCc1ccc(O)c(O)c1, the inhibition was 1.9%.
The inhibition of COc1cc(NC(=O)c2ccccn2)ccc1Cl is reported as -0.1%.
For CN1CCN(c2cccc(Nc3nc4c(-c5ccc(S(C)(=O)=O)cc5)cccn4n3)c2)CC1, the inhibition was 20.7%.
For CC(S)C(=O)NCC(=O)O (centres unmarked), the inhibition was 4.07%.
Cn1c(COP(=O)(NCCBr)NCCBr)cnc1[N+](=O)[O-] gave an inhibition of -2.29%.
With CN(C(=O)/C=C/c1ccoc1)[C@@H]1CC[C@@]2(O)[C@H]3Cc4ccc(O)c5c4[C@@]2(CCN3CC2CC2)[C@H]1O5 the inhibition was 2.87%.
NC(=O)NO has an inhibition of -1.64%.
For Cc1cc2nc3c(=O)[nH]c(=O)nc-3n(C)c2cc1C=O, the inhibition was 3.67%.
With Cc1c(O)cccc1C(=O)N[C@@H](CSc1ccccc1)[C@H](O)CN1C[C@H]2CCCC[C@H]2C[C@H]1C(=O)NC(C)(C)C the inhibition was -5.94%.
Cc1cc(N2CCOCC2)ccc1Nc1nc(NC2CCCCC2)c2[nH]cnc2n1 gave an inhibition of -0.38%.
The inhibition of CN(C)CCCCC(=O)Nc1ccc(NC(=S)NC(=O)c2ccc(C(C)(C)C)cc2)cc1 is reported as 67.2%.
Clc1ccc(C(c2ccc(Cl)cc2)C(Cl)(Cl)Cl)cc1 has an inhibition of -0.08%.
For OB1OCc2cc(Cl)ccc21, the inhibition was 9.42%.

Set 4
Target: Histone acetyltransferase KAT6A, winged helix 1, GST fusion (KAT6A, Homo sapiens, UniProt Q92794, residues 1-85)
Technique: protein binding microarray
Form: double-stranded DNA, one strand shown
Sample: in vitro
Concentration: not given
Notes: 8-mer, flanks averaged, mean of 2 arrays, mostly near background
Baseline: not given
Reading: higher = stronger binding
Target sequence (chain): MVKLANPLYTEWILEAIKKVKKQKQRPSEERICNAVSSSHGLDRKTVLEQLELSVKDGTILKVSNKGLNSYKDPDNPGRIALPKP
`CTAGGGAA` gave an E-score of -0.187.
`GAACGCTC` has an E-score of 0.107.
`GATGATCA` gave an E-score of -0.106.
The E-score of `CGTATAAA` is reported as 0.149.
`AGGAGTTC` has an E-score of -0.252.
For `AGCTTGCG`, the E-score was 0.125.
`GGTGTAAC` has an E-score of 0.0856.
`ACGGAATG` has an E-score of 0.0577.

Mixed results
Effect on: enzyme activity
Action: inhibitor
With O=C(O[C@@H]1Cc2c(O)cc(O)cc2O[C@@H]1c1cc(O)c(O)c(O)c1)c1cc(O)c(O)c(O)c1 the inhibition was 16% (Replicase polyprotein 1ab, 3C-like proteinase (rep, Middle East respiratory syndrome-related coronavirus, UniProt K9N7C7); MERS-CoV; 10 µM).
[NH-]c1c[n+](N2CCOCC2)no1 gave an inhibition of 60.4% (Replicase polyprotein 1ab, main protease (rep, Severe acute respiratory syndrome coronavirus 2, UniProt P0DTD1); 20 µM, hit confirmation, no DTT).

For quick reference, copied from above (set 3):
The inhibition of C[C@H](Nc1cc(-c2cnn(C)c2)cc(Nc2cnccn2)n1)c1ccc(F)cc1 is reported as 5.62%.
The inhibition of CN(C)CCCCC(=O)Nc1ccc(NC(=S)NC(=O)c2ccc(C(C)(C)C)cc2)cc1 is reported as 67.2%.
With O=C(NC(=O)c1c(F)cccc1Cl)NC1c2ccccc2-c2ccccc21 the inhibition was 2.01%.
With COc1ccc([C@@H]2CC(=O)c3c(O)cc(O[C@@H]4O[C@H](CO[C@@H]5O[C@@H](C)[C@H](O)[C@@H](O)[C@H]5O)[C@@H](O)[C@H](O)[C@H]4O)cc3O2)cc1O the inhibition was 7.93%.
